Results gathered from unrelated publications.
“And” joins repeats or separate records; there may be more than shown. ± gives the spread as reported.

O=C(O)CCCC(=O)O — inhibition (DPPH radical scavenging; 500 µg/mL): 72.2 ± 1.63%
COc1ccc(F)cc1S(=O)(=O)Nc1cnc2c(c1)C(=O)NCCO2 — plasma PPi concentration (item: pyrophosphate; cynomolgus monkey; oral, 0.3 and 1 mg/kg, up to 2 h): increased
CCOP(=O)(OCC)OCCCCOC(=O)CC1=C(C)/C(=C/c2ccc([S+](C)[O-])cc2)c2ccc(F)cc21 (stereo not shown) — paw weight reduction (rat, adjuvant-induced arthritis; topical, 50 mg/kg once daily, prevention protocol, PSH vehicle; relative to: vehicle): 56% and 65%
CC(C)C[C@@H]1NC(=O)[C@H](C(C)C)NC(=O)[C@H](CO)NC(=O)CNC(=O)CNC(=O)[C@H](CCCNC(=N)N)NC(=O)[C@@H]2CCCN2C(=O)[C@@H](NC(=O)CC[C@H](NC(=O)c2ccc(N(C)Cc3cnc4nc(N)nc(N)c4n3)cc2)C(=O)O)C(C)(C)SSC[C@@H](C(=O)O)NC(=O)CNC(=O)[C@H]([C@@H](C)O)NC(=O)[C@H](C(C)C)NC1=O — paw weight (rat adjuvant arthritis; iv, 1 mg/kg once daily day 0-14, day 14): 3.46 ± 0.085 g
O=C(O)COc1c2c(c(OCC(=O)O)c3c1C1CC3c3cc4c(cc31)C1CC4c3ccccc31)C1CC2c2cc3c(cc21)C1CC3c2ccccc21 — time to domain pinch-off (confocal microscopy; DOPC/SM/cholesterol giant vesicles; 150 µM): 15 to 30 min
CC[C@H](C)[C@H](NC(=O)[C@H](Cc1c[nH]c2ccccc12)NC(=O)[C@H](CCCNC(=N)N)NC(=O)[C@H](CCCCN)NC(=O)[C@H](CC(C)C)NC(=O)[C@H](CC(=O)O)NC(=O)[C@H](Cc1ccccc1)NC(=O)[C@H](C)NC(=O)[C@H](Cc1ccc(O)cc1)NC(=O)[C@H](CC(N)=O)NC(=O)[C@H](Cc1ccc(O)cc1)NC(=O)[C@H](CCCNC(=N)N)NC(=O)[C@H](Cc1ccc(O)cc1)NC(=O)[C@H](Cc1ccc(O)cc1)NC(=O)[C@@H](NC(=O)[C@H](CC(C)C)NC(=O)[C@H](C)NC(=O)[C@H](CC(N)=O)NC(=O)[C@H](Cc1ccc(O)cc1)NC(C)=O)[C@@H](C)CC)C(=O)N[C@@H](Cc1ccc(O)cc1)C(=O)N[C@@H](CC(C)C)C(N)=O — α4β7+ CCR9+ cells (item: HA-52 tetramer; antigen-experienced tetramer+ CD4 T cells, healthy adults, HLA-DRB1*0101; dose not given): 0%
CSCC[C@H](NC(=O)CNC(=O)[C@H](CC(=O)O)NC(=O)[C@@H](NC(=O)[C@@H](NC(=O)[C@@H](NC(=O)CNC(=O)[C@H](CCC(N)=O)NC(=O)[C@H](CCSC)NC(=O)[C@H](CC(=O)O)NC(=O)[C@H](C)NC(=O)[C@H](C)NC(=O)[C@@H](NC(=O)[C@H](CO)NC(=O)[C@@H](N)CC(C)C)[C@@H](C)O)C(C)C)C(C)C)[C@@H](C)O)C(=O)N[C@@H](C)C(=O)N[C@@H](CO)C(=O)NCC(=O)N[C@@H](CC(C)C)C(=O)N[C@@H](CC(=O)O)C(=O)N[C@@H](CCCCN)C(=O)N[C@@H](CC(=O)O)C(=O)N[C@@H](Cc1ccc(O)cc1)C(=O)N[C@@H](CC(C)C)C(=O)N[C@@H](CCCCN)C(=O)N1CCC[C@H]1C(=O)N[C@@H](CC(=O)O)C(=O)N[C@@H](CC(=O)O)C(=O)O — survival (patients with partial response, p53-positive solid tumours; dose not given, deceased patients): 44 to 71 weeks
CCN(Cc1ccccc1)C(=O)CCc1nc(CN2CCN(C(=O)Cc3ccc(OC)c(OC)c3)CC2)no1 — action potential number (current clamp; L4-L6 DRG neurons, rat CCI model; 10 µM, added: 500 pA current injection): 0.09 ± 0.05
CCCCCCCC/C=C\CCCCCCCCOP(O)(O)=S.N — survival increase (C57BL/6 mouse; subcutaneous, 1, 3 or 10 mg/kg single, day 30, dosed 30 min before irradiation, added: 6.3 Gy total-body irradiation, LD90/30; relative to: vehicle): > 50%
CCOP(=O)(OCC)OCCCCOC(=O)CC1=C(C)C(=Cc2ccc([S+](C)[O-])cc2)c2ccc(F)cc21 (stereo not shown) — tumour volume reduction (GFP imaging; BALB/c nude mice, orthotopic A549-GFP xenograft; inhalation, 6.5 mg/kg five times weekly, 8 weeks; relative to: control): 75%
Cc1ccc(/C=C/C(=O)O)cc1-c1cc2c(cc1C)C(C)(C)CCC2(C)C — log2 fold change (RNA sequencing, item: Ifit3 mRNA; rat, brain; dose not given, 24 h, single dose; relative to: vehicle): 0.5
COc1ccc([N+](=O)[O-])cc1NC(=O)CCC(=O)[O][Zn][O]C(=O)CCC(=O)Nc1cc([N+](=O)[O-])ccc1OC.c1ccncc1 — inhibition (DPPH scavenging, absorbance; 250 µg/mL): 68.2%
O=C(O)CCn1c(=O)oc2cc(Cl)c(Cl)cc21 — ED1-positive cells (rat, acute pancreatitis, lung; dose not given): increased
CC[C@H](C)[C@H](NC(=O)[C@@H](NC(=O)[C@H](CC(=O)O)NC(C)=O)[C@@H](C)O)C(=O)N[C@@H](CCCNC(=N)N)C(=O)N[C@@H](CC(C)C)C(=O)N[C@@H](CC(C)C)C(=O)N[C@@H](Cc1ccccc1)C(=O)N[C@@H](CCC(N)=O)C(=O)N[C@@H](CC(C)C)C(=O)N[C@@H](CCSC)C(=O)N[C@@H](CCCNC(=N)N)C(=O)N1CCC[C@H]1C(=O)N1CCC[C@H]1C(=O)N[C@@H](CC(N)=O)C(=O)N[C@@H](CCSC)C(=O)N[C@H](C(=O)N1CCC[C@H]1C(=O)N[C@@H](C)C(=O)N[C@H](C(=O)N[C@@H](CC(N)=O)C(=O)N[C@@H](C)C(N)=O)C(C)C)[C@@H](C)O — α4β7+ CCR9+ cells (item: HA-15 tetramer; antigen-experienced tetramer+ CD4 T cells, healthy adults, HLA-DRB1*0101; dose not given): 27.3%
N=C(N)NCCC[C@H](NC(=O)[C@@H]1CCCN1C(=O)[C@@H]1CSSC[C@H](N)C(=O)N[C@@H](Cc2ccc(O)cc2)C(=O)N[C@@H](Cc2ccccc2)C(=O)N[C@@H](CCC(N)=O)C(=O)N[C@@H](CC(N)=O)C(=O)N1)C(=O)NCC(N)=O — peak mean arterial pressure change (male Sprague-Dawley rat, conscious; intra-arterial, 20 ng/kg; relative to: pre-injection baseline): ~25 mmHg
Clc1ccc(NN=C(c2ccccc2)c2ccccn2)nc1 — median survival (BALB/c mouse, orthotopic 4T1 mammary tumour; oral gavage, dose not given): 33 days
CC(C)C[C@@H]1NC(=O)[C@@H](Cc2c[nH]c3ccccc23)NC(=O)[C@H](CCCNC(=N)N)NC(=O)[C@@H](CCC(=O)O)NC(=O)[C@H](CCC(N)=O)NC(=O)[C@@H](CCC(=O)O)NC(=O)[C@H](CCCNC(=N)N)NC(=O)[C@@H](Cc2c[nH]c3ccccc23)NC1=O — Helios+ to RORγt+ Treg ratio (flow cytometry; LDLr-/- mouse, western diet, small intestine lamina propria; dose not given; relative to: vehicle): increased
Cn1cc(-c2cccc(CN3CCC4(CC3)COc3c4ccc4c3CN([C@H]3CCC(=O)NC3=O)C4=O)c2)cn1 — tumour growth inhibition (Crbn I391V mice, MC-38 tumour; oral, 30 mg/kg once daily, day 22): 68%
CC(=O)c1cc2ccccc2oc1=Nc1nccs1 — mean arterial blood pressure (New Zealand White rabbit, normotensive; dose not given; relative to: control): increased
CC[C@H](C)CCCCC(=O)N[C@@H](CCN)C(=O)N[C@H](C(=O)N[C@@H](CCN)C(=O)N[C@H]1CCNC(=O)[C@H]([C@@H](C)O)NC(=O)[C@H](CCN)NC(=O)[C@H](CCN)NC(=O)[C@H](CC(C)C)NC(=O)[C@@H](Cc2ccccc2)NC(=O)[C@H](CCN)NC1=O)[C@@H](C)O — survival (C57BL/6 mouse, CLP sepsis; intravenous, 5 mg/kg every two days × 3, first dose 2 h after CLP): 33%
CC[C@H](C)[C@H](NC(=O)[C@H](CCCNC(=N)N)NC(=O)[C@H](CCC(N)=O)NC(=O)[C@H](CC(=O)O)NC(=O)[C@H](CC(C)C)NC(=O)[C@H](CC(C)C)NC(=O)[C@H](CC(N)=O)NC(=O)[C@H](Cc1ccccc1)NC(=O)[C@H](CC(=O)O)NC(=O)[C@@H](NC(=O)[C@@H](NC(=O)[C@H](CC(N)=O)NC(=O)CNC(=O)[C@H](CO)NC(C)=O)C(C)C)[C@@H](C)CC)C(=O)N[C@H](C(=O)N[C@@H](Cc1c[nH]c2ccccc12)C(=O)N[C@@H](CCC(N)=O)C(=O)N[C@@H](CC(N)=O)C(=O)N[C@@H](Cc1c[nH]c2ccccc12)C(=O)N[C@@H](Cc1ccc(O)cc1)C(=O)N[C@@H](C)C(N)=O)[C@@H](C)CC — α4β7+ CCR9+ cells (item: HA-51 tetramer; antigen-experienced tetramer+ CD4 T cells, healthy adults, HLA-DRB1*0101; dose not given): 30.8%
CC(C)C[C@H](NC=O)C(=O)N[C@@H](C)C(=O)N[C@@H](C)C(=O)N[C@@H](CC(=O)O)C(=O)N[C@@H](CC(C)C)C(=O)N[C@@H](CC(C)C)C(=O)N[C@@H](C)C(=O)N[C@@H](C)C(=O)N[C@@H](CC(C)C)C(=O)NCC(=O)N[C@@H](CC(=O)O)C(=O)N[C@@H](CC(C)C)C(=O)N[C@@H](CC(C)C)C(=O)N[C@@H](CCCCN)C(=O)N[C@@H](Cc1c[nH]c2ccccc12)C(=O)N[C@@H](CC(C)C)C(=O)N[C@@H](CC(C)C)C(=O)N[C@@H](CC(=O)O)C(=O)N[C@@H](C)C(=O)N[C@@H](CC(C)C)C(=O)N[C@@H](C)C(=O)N[C@@H](CCCCN)C(=O)N[C@@H](CC(C)C)C(=O)N[C@@H](C)C(=O)N[C@@H](CCCCN)C(=O)N[C@@H](CCCCN)C(=O)O (racemic) — time constant (carboxyfluorescein release, stopped-flow fluorescence; POPC vesicles 50 µM; up to 1 µM, pH 7.5, peptide/lipid 1:50): 650 s

A few entries again:
CCCCCCCC/C=C\CCCCCCCCOP(O)(O)=S.N — survival increase (C57BL/6 mouse; subcutaneous, 1, 3 or 10 mg/kg single, day 30, dosed 30 min before irradiation, added: 6.3 Gy total-body irradiation, LD90/30; relative to: vehicle): > 50%
CC[C@H](C)[C@H](NC(=O)[C@H](Cc1c[nH]c2ccccc12)NC(=O)[C@H](CCCNC(=N)N)NC(=O)[C@H](CCCCN)NC(=O)[C@H](CC(C)C)NC(=O)[C@H](CC(=O)O)NC(=O)[C@H](Cc1ccccc1)NC(=O)[C@H](C)NC(=O)[C@H](Cc1ccc(O)cc1)NC(=O)[C@H](CC(N)=O)NC(=O)[C@H](Cc1ccc(O)cc1)NC(=O)[C@H](CCCNC(=N)N)NC(=O)[C@H](Cc1ccc(O)cc1)NC(=O)[C@H](Cc1ccc(O)cc1)NC(=O)[C@@H](NC(=O)[C@H](CC(C)C)NC(=O)[C@H](C)NC(=O)[C@H](CC(N)=O)NC(=O)[C@H](Cc1ccc(O)cc1)NC(C)=O)[C@@H](C)CC)C(=O)N[C@@H](Cc1ccc(O)cc1)C(=O)N[C@@H](CC(C)C)C(N)=O — α4β7+ CCR9+ cells (item: HA-52 tetramer; antigen-experienced tetramer+ CD4 T cells, healthy adults, HLA-DRB1*0101; dose not given): 0%
CC(C)C[C@@H]1NC(=O)[C@H](C(C)C)NC(=O)[C@H](CO)NC(=O)CNC(=O)CNC(=O)[C@H](CCCNC(=N)N)NC(=O)[C@@H]2CCCN2C(=O)[C@@H](NC(=O)CC[C@H](NC(=O)c2ccc(N(C)Cc3cnc4nc(N)nc(N)c4n3)cc2)C(=O)O)C(C)(C)SSC[C@@H](C(=O)O)NC(=O)CNC(=O)[C@H]([C@@H](C)O)NC(=O)[C@H](C(C)C)NC1=O — paw weight (rat adjuvant arthritis; iv, 1 mg/kg once daily day 0-14, day 14): 3.46 ± 0.085 g
